Measured values from different studies.
Protocols differ between the studies behind these lines. ± marks the error that the study gave.

For `CC[C@H](C)[C@H](NC(=O)[C@H](CCCCN)NC(=O)CNC(=O)[C@H](CC(C)C)NC(=O)[C@H](Cc1ccccc1)NC(=O)[C@H](CCCCN)NC(=O)[C@H](CO)NC(=O)[C@H](Cc1ccccc1)NC(=O)[C@H](Cc1c[nH]c2ccccc12)NC(=O)[C@H](CCC(N)=O)NC(=O)[C@@H](NC(=O)[C@H](Cc1ccccc1)NC(=O)CCCCCNC(=O)CN1CCN(CC(=O)O)CCN(CC(=O)O)CCN(CC(=O)O)CC1)C(C)C)C(=O)N[C@@H](CCC(=O)O)C(=O)N1CCC[C@H]1C(=O)N[C@@H](CC(=O)O)C(=O)N[C@H](C(=O)N[C@@H](CO)C(=O)N[C@@H](CCC(N)=O)C(=O)N[C@H](C(=O)N[C@@H](CCC(N)=O)C(=O)N[C@@H](CC(=O)O)C(=O)N1CCC[C@H]1C(=O)N[C@@H](CC(N)=O)C(=O)N[C@@H](CC(=O)O)C(=O)N[C@@H](CCC(N)=O)C(=O)N[C@@H](Cc1ccc(O)cc1)C(=O)N[C@@H](CCC(=O)O)C(=O)N1CCC[C@H]1C(=O)N[C@@H](Cc1ccccc1)C(=O)O)C(C)C)C(C)C` [copper-64 labelled], the tissue uptake was 0.39 ± 0.1 %ID/g (C57BL/6 mice, muscle; vehicle, intratracheal instillation).
With `CSCC[C@H](NC(=O)CNC(=O)[C@H](CCCCN)NC(=O)[C@H](CC(C)C)NC(=O)[C@@H]1CCCN1C(=O)[C@H](CO)NC(=O)[C@H](Cc1c[nH]cn1)NC(=O)[C@H](Cc1c[nH]c2ccccc12)NC(=O)[C@H](CCCNC(=N)N)NC(=O)[C@H](CC(C)C)NC(=O)[C@H](CCCNC(=N)N)NC(=O)[C@H](Cc1c[nH]c2ccccc12)NC(=O)[C@H](CS)NC(=O)CCCCCNC(=O)CN1CCN(CC(=O)O)CCN(CC(=O)O)CCN(CC(=O)O)CC1)C(=O)O` [copper-64 labelled] the tissue uptake was 7.91 ± 0.9 %ID/g (PET imaging; BALB/c nude mice, liver; intravenous, dose not given, 4 h, Huh-7 tumour-bearing).
With `CC[C@H](C)[C@H](NC(=O)[C@@H](Cc1c[nH]c2ccccc12)NC(=O)[C@@H]1CCCN1C(=O)[C@H](CCCCN)NC(=O)[C@H](CCCCN)NC(=O)CCNC(=O)CCNC(=O)CN1CCN(CC(=O)O)CCN(CC(=O)O)CCN(CC(=O)O)CC1)C(=O)N[C@@H](C[Si](C)(C)C)C(=O)O` [gallium-68 labelled] the tissue uptake was 0.24 ± 0.06 %ID/g (ex vivo biodistribution; nude mice, HT-29 xenograft, stomach; 90 min, added: levocabastine 0.5 µmol).
`CC(C)C[C@@H](NC(=O)[C@@H](CCCNC(=N)N)NC(=O)[C@@H](Cc1c[nH]cn1)NC(=O)[C@@H](Cc1c[nH]c2ccccc12)NC(=O)[C@@H](Cc1c[nH]cn1)NC(=O)[C@@H](Cc1ccccc1)NC(=O)[C@H](NC(=O)[C@@H](Cc1ccc(O)cc1)NC(=O)CNC(=O)CNC(=O)CCOCCOCCOCCNC(=O)CN1CCN(CC(=O)O)CCN(CC(=O)O)CC1)[C@H](C)O)C(=O)N[C@H](CC(N)=O)C(=O)N1CCC[C@@H]1C(=O)O` [gallium-68 labelled] has a tissue uptake of 1.24 ± 0.34 %ID/g (gamma counting; C57BL/6 mice, male, stomach; intravenous, 1.85 MBq, 30 min).
With `CC[C@H](C)[C@H](NC(=O)[C@H](CCCNC(=N)N)NC(=O)[C@H](CCCCN)NC(=O)[C@H](Cc1ccc(O)cc1)NC(=O)[C@H](CC(=O)O)NC(=O)[C@H](C)NC(=O)CNC(=O)CCOCCOCCOCCNC(=O)CN1CCN(CC(=O)O)CCN(CC(=O)O)CCN(CC(=O)O)CC1)C(=O)N[C@H](C(=O)N[C@H](C(=O)N[C@@H](CCCCN)C(=O)N[C@H](C(=O)N[C@@H](CC(N)=O)C(N)=O)C(C)C)C(C)C)[C@@H](C)O` [copper-64 labelled] the tissue uptake was 0.664 ± 0.042 %ID/g (ex vivo gamma counting; C57BL/6J male mice, B16-F10 tumour, heart; intravenous, 1.85 MBq, 100 min).
The tissue uptake of `C[C@H](O)[C@@H](NC(=O)[C@H]1CCCN1C(=O)[C@@H](CCCCN)NC(=O)[C@@H](CO)NC(=O)[C@@H](Cc1ccc(O)cc1)NC(=O)[C@@H](CC(N)=O)NC(=O)CCOCCOCCOCCNC(=O)CN1CCN(CC(=O)O)CCN(CC(=O)O)CCN(CC(=O)O)CC1)C(=O)N[C@H](CC(=O)O)C(=O)N[C@H](CCCNC(=N)N)C(=O)N[C@H](CCC(N)=O)C(=O)N[C@H](Cc1ccc(O)cc1)C(=O)N[C@H](Cc1c[nH]cn1)C(=O)N[C@H](Cc1ccccc1)C(N)=O` [gallium-68 labelled] is reported as 0.68 ± 0.67 %ID/g (BALB/c nude mice U-87 MG tumour, spleen; intravenous, 1.85 MBq, 0.5 h, radiolabelled).
`CC[C@H](C)[C@H](NC(=O)[C@H](CCCNC(=N)N)NC(=O)[C@H](CCCCN)NC(=O)[C@H](Cc1ccc(O)cc1)NC(=O)[C@H](CC(=O)O)NC(=O)[C@H](C)NC(=O)CNC(=O)CCOCCOCCOCCNC(=O)CN1CCN(CC(=O)O)CCN(CC(=O)O)CCN(CC(=O)O)CC1)C(=O)N[C@H](C(=O)N[C@@H](CC(C)C)C(=O)N[C@@H](CCCCN)C(=O)N[C@H](C(=O)N[C@@H](CC(N)=O)C(N)=O)C(C)C)[C@@H](C)O` [copper-64 labelled] gave a tissue uptake of 2.46 ± 1.08 %ID/g (ex vivo gamma counting; C57BL/6J male mice, B16-F10 tumour, spleen; intravenous, 1.85 MBq, 20 min).
With `CCCC[C@H]1C(=O)N(C)[C@@H](CCCC)C(=O)N[C@@H](CCCNC(=O)CN2CCN(CC(=O)O)CCN(CC(=O)O)CCN(CC(=O)O)CC2)C(=O)N[C@H](C(=O)NCC(N)=O)CSCC(=O)N[C@@H](Cc2ccc(O)cc2)C(=O)N(C)[C@@H](C)C(=O)N[C@@H](CC(N)=O)C(=O)N2CCC[C@H]2C(=O)N[C@@H](Cc2c[nH]cn2)C(=O)N[C@@H](CC(C)C)C(=O)N(C)CC(=O)N[C@@H](Cc2c[nH]c3ccccc23)C(=O)N[C@@H](CO)C(=O)N[C@@H](Cc2c[nH]c3ccccc23)C(=O)N1C` [gallium-68 labelled] the tissue uptake was 34.4 ± 11.7 %ID/g (NOD/SCID mice, CHO-hPD-L1 xenograft, kidney; 60 min, PBS pretreatment).

Repeated from above:
With `CC[C@H](C)[C@H](NC(=O)[C@@H](Cc1c[nH]c2ccccc12)NC(=O)[C@@H]1CCCN1C(=O)[C@H](CCCCN)NC(=O)[C@H](CCCCN)NC(=O)CCNC(=O)CCNC(=O)CN1CCN(CC(=O)O)CCN(CC(=O)O)CCN(CC(=O)O)CC1)C(=O)N[C@@H](C[Si](C)(C)C)C(=O)O` [gallium-68 labelled] the tissue uptake was 0.24 ± 0.06 %ID/g (ex vivo biodistribution; nude mice, HT-29 xenograft, stomach; 90 min, added: levocabastine 0.5 µmol).
